# Measured values gathered from unrelated publications.
# Each numbered part is a random draw from the data of one study; scales do not carry over between parts.

# Sample 1
# Target: Sal-like protein 4, full length isoform B (SALL4, Homo sapiens, UniProt Q9UJQ4-2, residues 1-616)
# Technique: universal PBM
# Form: double-stranded DNA, one strand shown
# Sample: in vitro
# Concentration: not given
# Setting: 8-mer, flanks averaged, mean of replicates
# Reading: higher = stronger binding
Oligonucleotide,E-score
CGGAATCA,0.00227
CCCATGAC,-0.237
AAGTTGAT,0.106
ACCGGGCC,-0.337
AGAGCTCT,-0.333
GCCCCCTA,-0.106
GGATACAC,-0.0562
AATCTCGG,-0.119
CAGTAAAG,0.0902
AGAGCAGA,0.108
CGAAATTA,0.249
TCGCTACA,-0.106
AAGTCCAG,0.0956
ATTCCCGC,0.0108
AAAAGCTT,0.127
ATCTGGTG,-0.0828
ACAGGAGC,-0.0569
CATTATTC,0.171
AGGCCCAA,-0.142

# Sample 2
# Target: Max-binding protein MNT, bHLH-zipper, MAX partner unstated (MNT, Homo sapiens, UniProt Q99583, residues 220-300)
# Technique: protein-binding microarray
# Form: double-stranded DNA, one strand shown
# Sample: in vitro
# Concentration: not given
# Setting: k-mer, scored over probes, only values ≥0.25
# Reading: higher = stronger binding
# Target sequence (chain): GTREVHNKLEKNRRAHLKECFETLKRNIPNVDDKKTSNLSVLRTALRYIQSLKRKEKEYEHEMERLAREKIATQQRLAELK
Oligonucleotide,E-score
ATTCCCCA,0.271
GCATGTAA,0.316
GTGGAGCA,0.271
CATGCGGC,0.43
ATGCTCAC,0.284
ACCATGCC,0.333
GAGCGTGA,0.318
ACCGCACG,0.295
GGCATGGA,0.305
ACGCTGCC,0.272
TCGTGGCA,0.31
ACGTGGAT,0.433
ACCACGGG,0.328
AACGTGAT,0.376
AATGGCAT,0.259
CACGGTGC,0.336

# Sample 3
# Target: Centromere-binding protein 1, full length, N-terminal tag (CBF1, Saccharomyces cerevisiae, UniProt P17106, residues 1-351)
# Chain of UniProt P17106 (whole entry, looked up): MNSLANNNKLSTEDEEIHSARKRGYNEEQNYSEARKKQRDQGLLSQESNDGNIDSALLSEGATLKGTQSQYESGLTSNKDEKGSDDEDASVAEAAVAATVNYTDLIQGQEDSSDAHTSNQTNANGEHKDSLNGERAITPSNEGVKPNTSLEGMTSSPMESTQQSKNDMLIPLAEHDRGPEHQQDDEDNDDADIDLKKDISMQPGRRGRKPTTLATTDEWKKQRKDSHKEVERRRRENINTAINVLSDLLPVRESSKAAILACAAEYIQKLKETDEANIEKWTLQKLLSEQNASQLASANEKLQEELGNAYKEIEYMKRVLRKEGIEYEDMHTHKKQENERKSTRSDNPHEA
# Technique: protein-binding microarray
# Form: double-stranded DNA, one strand shown
# Sample: in vitro
# Concentration: 0.8 µM
# Setting: whole 60-bp probe, no competitor
# Reading: higher = stronger binding
Oligonucleotide,fluorescence intensity
TGTACGAAGCTATTCCACATGAATATAGTAGTTAGGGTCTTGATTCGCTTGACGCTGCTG,531 a.u.
CCTAACTACTATAATGACGGTATATAGCTTCGTACAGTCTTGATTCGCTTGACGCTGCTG,508 a.u.
CTACCTTCGAGACTTCTGATGATGACATTTCCATTCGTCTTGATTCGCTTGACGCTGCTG,524 a.u.
GAAATACCACAAAAGCAGGTGACAGCAATTGTGTAGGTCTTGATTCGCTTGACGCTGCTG,1490 a.u.
GAATATGTAGTCTACCACATGCTCAAGGTCGATTAGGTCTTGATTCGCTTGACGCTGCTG,673 a.u.
GAAAGAACATATGGTGGCGTGTTTCTGCTGCAATAGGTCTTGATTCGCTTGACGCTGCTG,608 a.u.
CTACTAACGGAGCGTCACCAACCTGACCTTCCTTTCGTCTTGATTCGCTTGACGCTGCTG,526 a.u.
GAAACCTGTGCTTTGAACGTGTCTCATTTCTGCTAGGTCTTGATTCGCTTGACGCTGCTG,547 a.u.
CTACCCTGGAAGTCTCAGCTGATTCATTTAAATTTCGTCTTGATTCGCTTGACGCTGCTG,665 a.u.
CTACAACGGTAGAGGTGACTCACTTGGAAGCTTTTCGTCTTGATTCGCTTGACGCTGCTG,483 a.u.
GAATGTAAAAGAGAGCACGTCTGTAGTTTCAAATAGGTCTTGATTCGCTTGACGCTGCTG,562 a.u.
CTATTGGAGCAGAGGCACCTGATAATGGAAGCGTTCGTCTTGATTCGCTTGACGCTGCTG,687 a.u.
GAAGGGTCAGCAACTGACGTGACTCAGCCTGGCTAGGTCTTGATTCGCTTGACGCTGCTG,632 a.u.
GAATATCAGTATCATCAGTTGAAACAGTAAGGATAGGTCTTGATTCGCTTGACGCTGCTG,552 a.u.
CTATGCAGAACTTACCTTGTCACGTTTGGAACTTTCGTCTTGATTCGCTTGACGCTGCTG,1220 a.u.
CCTAACTACTATACATACGTGAGATAGCTTCGTACAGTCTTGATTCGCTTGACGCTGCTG,526 a.u.
TGTACGAAGCTATGTCACGTGAATATAGTAGTTAGGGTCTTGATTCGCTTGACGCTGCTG,15900 a.u.
CCTAACTACTATAAAGGTAACGTATAGCTTCGTACAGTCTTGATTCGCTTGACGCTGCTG,502 a.u.

# Sample 4
# Target: RNA binding protein fox-1 homolog 2, RRM domain, GST-SBP tag (RBFOX2, Homo sapiens, UniProt O43251-10, residues 100-194)
# Technique: RNA Bind-n-Seq
# Form: RNA
# Sample: in vitro
# Concentration: 365 nM
# Setting: natural RNA segment, single round, ends assumed
# Reference: no-protein control
# Reading: higher = stronger binding
# Construct (chain): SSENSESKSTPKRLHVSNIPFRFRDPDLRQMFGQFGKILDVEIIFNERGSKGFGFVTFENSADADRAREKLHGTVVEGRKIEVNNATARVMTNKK
Oligonucleotide,RBNS enrichment (R)
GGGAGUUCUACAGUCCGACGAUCCUCUCAGCUUCCAUAUGGAAGUGAGGAAGGGACCUGUGCCUAUUAGCCCUCUUGAUUCUCACCUGAUAGGGCAACAUCAAAGCUUGGUGUGGGUGUGGGUGCCAGCUCCAUGGAAUUCUCGGGUGCCAA,0.224
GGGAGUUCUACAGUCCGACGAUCCCUAGAGACCAACUCUGUUUCAUUUUAUUUUAUUUUUUAAUUUAUGUCUGGAAGCCUGGCUAAACUCUGCCUUCGGGACUGGGGGUAUUGGGUGGGGGUGCAGUCCAUGUUGGAAUUCUCGGGUGCCAA,0.441
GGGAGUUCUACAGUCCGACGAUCACUUCAUAUAUCUAUCAGGUAAUAUAGGCUUGAAAAUUGAUAUCCUGUGGUGCUAAAGUACAGUAGAAAGAUGUGUAUACGUUUUAUUUUAAAUUGUACGAAGGGGAAUUUGGAAUUCUCGGGUGCCAA,0.284
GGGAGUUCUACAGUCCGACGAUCGCAGAGAGAAACCAUGGGAACUCCCUGUGGGGAACACUCAAGAAGGCCAAGCCUCAGCAGGAAAGUGCAGUAGAAGAUACUGUUUUACAGACAAGUCCUGUGUAACCUGCUGGAAUUCUCGGGUGCCAA,0.315
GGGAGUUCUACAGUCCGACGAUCUUUGUACAUGAAUGAUUCAAAAUCCAACCCACCAAAUGGUUACCCUGUAUUCCAGAAACUCACUUGAUUCUGUAUUGGUAAAUGCCUGGCUUCUUCACCAACUCCAUAGGUGGAAUUCUCGGGUGCCAA,25
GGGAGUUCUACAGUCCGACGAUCGGUUUCUUUCAUAACCCAUUUCUUUAACCUCUUGUCAAUGAAAAUAAAAAGAAGAGGAAGGAAGGAAAUGUGUACAAGAAUAAAAGAAGGAAGAGAAGGUAGAAAAAGAAUGGAAUUCUCGGGUGCCAA,0.687
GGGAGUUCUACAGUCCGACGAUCGGCUUCAGAAGUCAUGUCAGUGUCUCUGUAGACAAACUCCACUGUACAUCUUGGAUUAAUCUUCUGAUUCAUUGUUCAUUUUCUCAAGACUUUUUGUGGAAUUCUCUGAUUGGAAUUCUCGGGUGCCAA,0.469
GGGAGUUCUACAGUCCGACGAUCAGACUCCUGUCUUUUACCCUCCCCUCGUUCCAGACCUGCCUCAUGGUGGCAACAUGGUUCUUGAACAAUUAAAGAAACAAAUGACUUUUUGGAAUAGCCCUGUCUAGGGCUGGAAUUCUCGGGUGCCAA,0.467

# Sample 5
# Target: Ras GTPase-activating protein-binding protein 1, full length (G3BP1, Homo sapiens, UniProt Q13283)
# Chain of UniProt Q13283 (whole entry, looked up): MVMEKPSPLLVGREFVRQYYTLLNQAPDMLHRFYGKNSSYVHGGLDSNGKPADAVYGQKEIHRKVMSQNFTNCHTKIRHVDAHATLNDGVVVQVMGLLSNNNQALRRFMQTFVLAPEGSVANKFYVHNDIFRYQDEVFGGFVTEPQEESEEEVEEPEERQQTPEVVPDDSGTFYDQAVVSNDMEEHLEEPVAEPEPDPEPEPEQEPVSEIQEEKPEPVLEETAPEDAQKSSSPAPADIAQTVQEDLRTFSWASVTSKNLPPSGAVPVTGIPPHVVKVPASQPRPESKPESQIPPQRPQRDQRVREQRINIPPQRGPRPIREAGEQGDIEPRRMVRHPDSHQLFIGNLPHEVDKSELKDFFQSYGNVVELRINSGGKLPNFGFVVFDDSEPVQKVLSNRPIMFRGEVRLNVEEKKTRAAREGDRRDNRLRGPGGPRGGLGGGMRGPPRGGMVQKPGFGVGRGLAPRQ
# Technique: RNA Bind-n-Seq
# Form: RNA
# Sample: in vitro
# Concentration: 200 nM
# Setting: whole 134-nt RNA, ends assumed
# With: 150 mM KCl
# Reference: input library
# Reading: higher = stronger binding
Oligonucleotide,log2 enrichment
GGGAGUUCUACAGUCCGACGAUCACCAUGCAGGUGGGCAUCAUUGGGAAGUGGGGCAAGGGGGGGAUAGGGAGGGGGGUAACACUUUGGGAACAGGUGGUCCCAGGUCGUUUCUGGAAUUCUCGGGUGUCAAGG,1.07
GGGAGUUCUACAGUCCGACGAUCCCUGUGCUACACAUCGUAUGUACCGAAUCGGGAAAAAAGGGGAAAAAAGGGAAAAAAGGGGAAAGUAUUAUGUUACGCCGUUCGGAUCUGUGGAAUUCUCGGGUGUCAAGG,-0.293
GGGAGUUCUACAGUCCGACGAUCCUCAAGUCCUGUGCUACACAUCGUAUGUACCGAAUCGGGGAGGGGAGGGGAGGAAAGUAUUAUGUUACGCCGUUCGGAUCUGCACUUCCAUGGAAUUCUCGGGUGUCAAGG,0.999
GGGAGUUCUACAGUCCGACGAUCUCCUGUGCUACACAUCGUAUGUACCGAAUCGGGCCCCCCGGGCCCCCCGGGCCCCCCGGAAAGUAUUAUGUUACGCCGUUCGGAUCUGCAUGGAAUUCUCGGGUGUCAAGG,-0.257
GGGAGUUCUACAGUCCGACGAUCAAGUCCUGUGCUACACAUCGUAUGUACCGAAUCGGUUUUUUUGGAAAAAGGUUUGGAAAGUAUUAUGUUACGCCGUUCGGAUCUGCACUUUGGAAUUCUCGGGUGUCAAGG,-1.56
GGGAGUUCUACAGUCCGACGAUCAAGUCCUGUGCUACACAUCGUAUGUACCGAAUCGGGGUUUGGGUUUGGGUUUGGGGAAAGUAUUAUGUUACGCCGUUCGGAUCUGCACUUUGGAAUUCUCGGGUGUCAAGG,0.466
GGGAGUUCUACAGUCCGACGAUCCACAGACAACACGCACCCACACAAACACAGAGGGAAGGGGUUGGGAUGGGGACAGGGUGCACAGCAGGGCGGGGUAGGACCCCAGCCCCUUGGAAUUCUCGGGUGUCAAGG,1.77
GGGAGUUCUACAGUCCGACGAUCUCCUGUGCUACACAUCGUAUGUACCGAAUCGGGGUUUUUGGGGAAAAAGGGGUUUGGGGAAAGUAUUAUGUUACGCCGUUCGGAUCUGCAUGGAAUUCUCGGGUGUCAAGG,0.745
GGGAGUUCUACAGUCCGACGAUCGUCCUGUGCUACACAUCGUAUGUACCGAAUCGGGAAAAGGGGAAAAGGGGAAAAGGGGAAAGUAUUAUGUUACGCCGUUCGGAUCUGCACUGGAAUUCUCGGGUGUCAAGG,0.235

# Further values, each from its own experiment
Substance,target,test,test system,conditions,how to read,measurement,result
"PhoQ, residues 284 288 289 292 302 303 TASMAF","PhoP, residues 12 14 15 18 19 AQALL (Escherichia coli, UniProt P23836)","Sort-seq, item: YFP reporter",E. coli,"PhoQ-PhoP variant library, with: 10 µM Mg2+","reference: high Mg2+ state, higher = stronger signaling",fold induction,9.85

# Some of these lines once more (sample 1):
Oligonucleotide,E-score
ATCTGGTG,-0.0828
CGAAATTA,0.249
AGGCCCAA,-0.142
AGAGCTCT,-0.333
ATTCCCGC,0.0108
TCGCTACA,-0.106
CGGAATCA,0.00227
